# Experimental data pooled from the literature.
# Each line is one published result; not all experiments were run side by side. Several values in a cell are separate wells, animals, samples, runs or records. ± marks the error that the study gave.
Structure (SMILES),test,test system,conditions,how to read,quantity,value
CNCc1ccc(-c2[nH]c3cc(F)cc4c3c2CCNC4=O)cc1,item: any adverse event,human patients,"oral, 600 mg twice daily, grade 1",,patients with adverse event,23.1%
C[C@@H](Nc1cc(F)cc(F)c1)c1cc(C(=O)N(C)C)cc2c(=O)cc(N3CCOCC3)oc12,item: Nausea,advanced solid tumour patients,"oral, dose not given, dose finding",,related serious adverse events,1.6%
Cc1cc(-c2nccc3c2ccn3CC(=O)Nc2ccc(-c3cnccn3)cn2)ccn1,,human,"SAD part, single 40 mg dose",,subjects with any grade 2 TEAE,0%
CCOc1ccc(NC(C)=O)cc1,HPLC C18 retention,,pH 7.4,relative to: calibration standards,chromatographic hydrophobicity index,49.3
Nc1ncn([C@H]2C[C@H](O)[C@@H](CO)O2)c(=O)n1,UHPLC-MS/MS,"C57BL/6 mice, female, plasma","oral, 0.4 mg/kg",,AUC(0-4 h),189 ng·h/mL
[O]=[Co].[O]=[Co][O][Co]=[O],,"rat, female, faeces, 24-h collection","oral gavage, single, 300 mg/kg (220 mg Co/kg), day 2, vehicle 0.5% HPMC",relative to: vehicle control subtracted,cobalt concentration,234 µg/g
C[C@H]1CNCCCN1S(=O)(=O)c1cccc2cncc(F)c12,,healthy adult men,"ocular, 1 drop per eye twice daily, 8 days, adverse event",,subjects with soft faeces,5.6%
COc1cc2c(cc1OC)CN(CCc1ccc(NC(=O)c3cccc4c(=O)c5cccc(OC)c5[nH]c34)cc1)CC2,,"Sprague Dawley rats, plasma","iv infusion, 0.009 mg/h/kg, 4 h",,total plasma concentration,1.6 ng/mL
CCO[C@H]1CCN(Cc2c(OC)cc(C)c3[nH]ccc23)[C@H](c2ccc(C(=O)O)cc2)C1,,"PNH patients, active haemolysis","oral, 25 mg, 4 weeks, treatment",,incidence of haematuria,0%
CCOC(=O)c1cnc(Nc2nc3ccccc3o2)nc1CN1CCN(c2ccccc2)CC1,,octanol/buffer,pH 7.4,,logD,4.07
CNc1cc[n+](CCNC(=O)c2ccn3c(-c4c(C)noc4C)cnc3c2)cc1.[Cl-],,aqueous buffer,"initial, pH 10",,largest degradation product,not detected
C[Si](C)(C)O[Si](C)(C)C,,air/water,concentration not given,,enthalpy of phase change,12.7 kcal/mol
CCCOc1ccc(NC(=O)CN2CCN(C)CC2)cc1-c1nc(CC)c(CC)c(=O)[nH]1,,healthy Chinese men,"10 mg, together with: alcohol 0.5 g/kg",,flushing incidence,20%
O=C(Nc1nc2cccc(-c3ccc(CN4CCS(=O)(=O)CC4)cc3)n2n1)C1CC1,item: blood amylase increased,rheumatoid arthritis patients,"oral, 75 mg once daily, 4 weeks, any relatedness",,treatment-emergent adverse events,0%
Cl.[2H]C([2H])([2H])CC(=O)c1cnc(NC(=O)C2CC2)cc1Nc1cccc(-c2ncn(C([2H])([2H])[2H])n2)c1OC,,"human, fasted, plasma","oral, 25 mg, single dose, liquid formulation",,Vz/F,148 L
O=C(O)CCCOc1ccc([18F])cc1-c1cc(-c2ccccc2C(F)(F)F)n(-c2ccccc2)n1,gamma counting,"male ddY mice, kidney","intravenous, 2.1 MBq, 60 min",,radioactivity uptake,2.1 ± 0.38 SUV
CCn1cc(C(=O)N2CCOCC2)c(=O)c2cc(NC3Cc4ccccc4C3)cnc21,,"human, fed","oral suspension, 300 mg/day twice daily, day 1, median",,Tmax,4 h
CN(CCC#N)C1CCN(C(=O)Cn2cc(NC(=O)c3cnn4cccnc34)c(-c3cc(Cl)ccc3OC(F)F)n2)CC1,,"human, single ascending dose","5 mg, day 4",relative to: baseline,LDL cholesterol change,-3.2 mg/dL
Oc1ccc(/C=C/c2cc(O)cc(O)c2)cc1,,"rat, azoxymethane-injected, blood at sacrifice",10 mg/kg,,total protein,6.6 g/dL and 6.5 g/dL
COc1cc2c3c(n(CCCN4CCOCC4)c(=O)c2cc1OC)-c1cc2c(cc1C3=O)OCO2,,"beagle dog, plasma","intravenous infusion, 10 mg/m^2, 1 h infusion",,clearance,30 to 50 L/h/m²
CNCCOC12CC3(C)CC(C)(CC(Cn4ncc(-c5ccc(N6CCc7cccc(C(=O)Nc8nc9ccccc9s8)c7C6)nc5C(=O)O)c4C)(C3)C1)C2,,"beagle dog, male, anaesthetised","intravenous bolus, 0.03 mg/kg, 90 min",relative to: baseline,mean arterial pressure change,1%
O=C(O)CCC(=O)O.[2H]C([2H])([2H])Oc1cc(C)c2[nH]ccc2c1CN1CC[C@@H](C2CC2)C[C@H]1c1ccc(C(=O)O)cc1,multiple ascending dose,healthy Chinese subjects,300 mg once daily,,subjects with TEAE Acne,0%
OCc1nc2ccc(NCc3ccc(C(F)(F)F)cc3)cc2[nH]1,,"Balb/c mouse, male, heart","intravenous, 1 mg/kg, 6 h",,tissue concentration,17.8 ± 8.4 ng/g
NC/C(=C\F)COc1cccc(Cn2c(=S)[nH]c(=O)c3[nH]cnc32)c1,,"C57BL/6J mice, plasma","oral, 15 mg/kg single, 6 h",,tissue concentration,50 ng/mL
COc1ccccc1OCC(O)CN1CCN(CC(=O)Nc2c(C)cccc2C)CC1 (centres unmarked),,"human, plasma","oral, 60 mg/kg/day every 6 h",,trough plasma concentration,312 ng/mL
CC#CC(=O)N1CCC[C@H]1c1nc(-c2ccc(C(=O)Nc3ccccn3)cc2)c2c(N)nccn12,,PBS,"100 µM, 23 h, pH 7.45, 37 °C, together with: cysteine 10 mM",,cysteine adduct formation,98%
C[C@H]1CN(C(=O)CC#N)[C@]12CCN(c1ncnc3[nH]ccc13)C2,,healthy human,"oral, 6 mg single",,subjects with Fatigue,0%
C[C@@H](O)[C@H](NC(=O)c1ccc(C#CC#Cc2ccccc2)cc1)C(=O)NO,,octanol/buffer,pH 7.4,,logD,4
CC[C@H](C)[C@H](NC(=O)[C@H](Cc1ccccc1)NC(=O)[C@H](CCC(=O)O)NC(=O)[C@H](CCCCNC(=O)COCCOCCNC(=O)COCCOCCNC(=O)CC[C@H](NC(=O)CCCCCCCCCCCCCCCCC(=O)O)C(=O)O)NC(=O)[C@H](C)NC(=O)[C@H](C)NC(=O)[C@H](CCC(N)=O)NC(=O)CNC(=O)[C@H](CCC(=O)O)NC(=O)[C@H](CC(C)C)NC(=O)[C@H](Cc1ccc(O)cc1)NC(=O)[C@H](CO)NC(=O)[C@H](CO)NC(=O)[C@@H](NC(=O)[C@H](CC(=O)O)NC(=O)[C@H](CO)NC(=O)[C@@H](NC(=O)[C@H](Cc1ccccc1)NC(=O)[C@@H](NC(=O)CNC(=O)[C@H](CCC(=O)O)NC(=O)C(C)(C)NC(=O)[C@@H](N)Cc1cnc[nH]1)[C@@H](C)O)[C@@H](C)O)C(C)C)C(=O)N[C@@H](C)C(=O)N[C@@H](Cc1c[nH]c2ccccc12)C(=O)N[C@@H](CC(C)C)C(=O)N[C@H](C(=O)N[C@@H](CCCNC(=N)N)C(=O)NCC(=O)N[C@@H](CCCNC(=N)N)C(=O)NCC(=O)O)C(C)C,12-lead Holter ECG,healthy humans,"subcutaneous, 1.5 mg once weekly, 27 h, steady state",relative to: placebo,QTcF change from baseline,-1.1 ms
CN1CCCC1CCNS(=O)(=O)c1ccc2c(c1)CN(CC1CCCCC1)CC2 (centres unmarked),,"wild-type mouse, pons/cerebellum","oral in diet, 0.002% in diet, 6 months",,Cmin,11.1 ng/g
Clc1cc(Cl)cc([C@H]2COC[C@H](C3CCCCC3)N2)c1,"shake-flask, 1-octanol/buffer",,pH 7.4,,logD,> 4.7
COc1cc2nccc(Oc3ccc(NC(=O)c4cc5c(n(-c6ccccc6)c4=O)CCCC5=O)nc3)c2cc1OC,,"human, relapsed/refractory AML","oral, dose not given, grade ≥3, any causality, all doses",,patients with decreased platelet,15%
O=C(N[C@H](Cc1c[nH]c2ccccc12)C(=O)Nc1ccncc1)c1ccc(N2CCN(c3ccc(F)cc3F)CC2)cc1F,,"Swiss Webster mouse, female, fat","oral, 50 mg/kg, 8 h, 20% HPβCD vehicle",,concentration,1430 nM
c1cc(-c2ccc3ncnc(NC4CCOCC4)c3c2)cc(N2CCOCC2)c1,,human liver microsomes,,,CLint,84 µL/min/mg
CC(C)(C)c1ccc([C@@H]2COC[C@H](C3CCCCC3)N2)cc1,"shake-flask, 1-octanol/buffer",,pH 7.4,,logD,> 4.7
Cn1cnc2c(F)c(Nc3ccc(Br)cc3Cl)c(C(=O)NOCCO)cc21,population PK model,"human, plasma","oral, first-order absorption model, fed",,absorption rate constant,0.3 h⁻¹
Cc1cc(C)c(S(=O)(=O)NCc2ccccn2)cc1C,,octanol/buffer,pH 7.4,,logD,2.66
CCN1/C(=C/C(C)=O)Sc2ccc(F)cc21,,cynomolgus monkey,"oral, 10 mg/kg, 0.5 h post-dose",,mean blood pressure,87 ± 4 mmHg
Cc1cc(NC2CCN(C(=O)OC3CCN(C(=O)/C=C/CN(C)C)C3)CC2)n2ncc(C(C)C)c2n1 (centres unmarked),"CTCAE v4.0, item: Arthralgia",patients with advanced solid tumours,"oral, dose not given, TIW, grade 3 or higher",,patients with TEAE,0%
COc1cc(Nc2ncc3c(n2)-c2ccc(Cl)cc2C(c2c(F)cccc2OC)=NC3)ccc1C(=O)O,"item: Fatigue, all grades","cancer patients, phase 1/2","oral, dose not given, together with: pembrolizumab",,patients with adverse event,58%
O=C(O)CN1CCCN2CCN(CC(=O)O)CCCN(CC1)Cc1cccc(n1)C2,,64Cu complex,"48 h, 70 °C, together with: DOTA excess",,intact complex,95%
Cc1cc([C@H]2C[C@H]3[C@@H](CF)SC(N)=N[C@@]3(c3ccc(F)cc3F)CO2)on1,,"male 129/SVE wild-type mouse, brain","subcutaneous, 100 mg/kg, 5 h",,brain concentration,399 nM
c1cncc(-c2cccc(Nc3nccc(NC4CCCCC4)n3)c2)c1,,MDCKII-WT cells,"10 µM, pH 7.4",relative to: Papp B-A over A-B,efflux ratio,1.08
O=C(Nc1ccccc1)c1cc([N+](=O)[O-])ccc1[76Br],,heparinized rat blood,30 min,,intact radiotracer,10%
Cc1ccc([C@@H]2O[C@H](CO)[C@@H](O)[C@H](O)[C@H]2O)cc1Cc1ccc(-c2ccc(F)cc2)s1,,Japanese type 2 diabetes patients,"200 mg, day 3, 24 h urine collection",relative to: baseline,urinary calcium excretion change,-30.1 mg
CC(C)(C(=O)N1CCOc2c(C#N)cncc2C1)C(F)F,item: Conjunctivitis,human,"oral, 20 mg once daily, 14 days, multiple ascending dose",,subjects with adverse event,12.5%
CNC(=O)c1ccc(-c2cnc3ncc(Cc4ccc5ncccc5c4)n3n2)cc1F,,Japanese patients,"oral, 400 mg twice daily, grade 3/4",,Photosensitivity patients,0%
CC(C)(C)C[C@@H]1COC[C@H](c2ccc(C(F)(F)F)cc2)N1,"shake-flask, 1-octanol/buffer",,pH 7.4,,logD,> 4.7
CCO[C@H]1CCN(Cc2c(OC)cc(C)c3[nH]ccc23)[C@H](c2ccc(C(=O)O)cc2)C1,,"human mild hepatic impairment, plasma","oral, 200 mg single dose, geometric mean",,total half-life,25.4 h
CN(CCC(=O)O)C(=O)c1ccc2c(c1)CC[C@@H]1[C@@H]2CC[C@]2(C)C(c3cncc(F)c3)=CC[C@@H]12,,"premenopausal women, endometriosis pain, serum","60 mg twice daily, visit 5, median",,total bilirubin,0.8 mg/dL
Nc1ncnc2c1ncn2[C@H]1C[C@@H]2OP(=O)(O)OC[C@H]3O[C@@H](n4cnc5c(N)ncnc54)C[C@@H]3OP(=O)(O)OC[C@H]2O1,,"non-tumor-bearing mice, blood","intravenous, 1 mg/kg, toxicity study",,MCH,22.95 ± 0.06 pg
COc1cccc(OC)c1-c1cc(C(=O)NC2(C(=O)O)C3CC4CC(C3)CC2C4)nn1-c1ccc(C(=O)N(C)CCCN(C)CCCN(C)C(=O)CN2CCN(CC(=O)[O-])CCN(CC(=O)[O-])CCN(CC(=O)[O-])CC2)cc1C(C)C.[177Lu+3] (centres unmarked),,"mouse HT-29 xenograft, small intestine","168 h post injection, biodistribution",,tissue uptake,0.081 %ID/g
C[C@@H](Oc1ccc(S(C)(=O)=O)cc1C(=O)N1C[C@@H]2C[C@]2(c2cc(C(F)(F)F)on2)C1)C(F)(F)F,,"elderly humans, plasma","oral, 50 mg once daily, single dose, geometric mean",,%AUC extrapolated,27.8%
C=CC(=O)Nc1cc(Nc2nccc(-c3cn(C)c4ccccc34)n2)c(OC)cc1N(C)CCN(C)C,UHPLC-MS/MS,"human, dried blood spot finger-prick","oral, 80 mg once daily",,trough concentration,257 ng/mL and 211 ng/mL and 198 ng/mL and 185 ng/mL and 183 ng/mL and 201 ng/mL
COC(=O)c1ccc([C@H]2COC(C)(C)[C@@H](c3ccc(Cl)c(Cl)c3)N2)cc1,"shake-flask, 1-octanol/buffer",,pH 7.4,,logD,> 4.7
C[C@@H]1NC(=O)[C@H](CCCCNC(=O)CO/N=C/C(=O)NCCCC[C@@H]2NC(=O)[C@@H](Cc3ccccc3)NC(=O)[C@H](CC(=O)O)NC(=O)CNC(=O)[C@H](CCCNC(=N)N)NC2=O)NC(=O)CNC(=O)[C@@H]2CCCN2C(=O)[C@H](CCCCNC(=O)CO/N=C/C(=O)NCCCC[C@@H]2NC(=O)[C@@H](Cc3ccccc3)NC(=O)[C@H](CC(=O)O)NC(=O)CNC(=O)[C@H](CCCNC(=N)N)NC2=O)NC(=O)[C@H](CCCCNC(=O)[C@H](CCCCN)NC(=O)[C@H](Cc2ccccc2)NC(=O)CNC(=O)CN2CCCNCCNCCCNCC2)NC(=O)[C@H](CCCCNC(=O)CO/N=C/C(=O)NCCCC[C@@H]2NC(=O)[C@@H](Cc3ccccc3)NC(=O)[C@H](CC(=O)O)NC(=O)CNC(=O)[C@H](CCCNC(=N)N)NC2=O)NC(=O)CNC(=O)[C@@H]2CCCN2C(=O)[C@H](CCCCNC(=O)CO/N=C/C(=O)NCCCC[C@@H]2NC(=O)[C@@H](Cc3ccccc3)NC(=O)[C@H](CC(=O)O)NC(=O)CNC(=O)[C@H](CCCNC(=N)N)NC2=O)NC1=O [copper-64 labelled],RP-HPLC,radiolabelling buffer,"24 h, 37 °C",,intact fraction,100%
